Experimental data gathered from unrelated publications.
Lines come from different studies, so protocols differ. ± gives the spread as reported.
Proteasome component C5/PSMB5: Proteasome component C5/PSMB5 (Homo sapiens, UniProt P20618+P28074)
UniProt P20618, sequence (whole entry, looked up): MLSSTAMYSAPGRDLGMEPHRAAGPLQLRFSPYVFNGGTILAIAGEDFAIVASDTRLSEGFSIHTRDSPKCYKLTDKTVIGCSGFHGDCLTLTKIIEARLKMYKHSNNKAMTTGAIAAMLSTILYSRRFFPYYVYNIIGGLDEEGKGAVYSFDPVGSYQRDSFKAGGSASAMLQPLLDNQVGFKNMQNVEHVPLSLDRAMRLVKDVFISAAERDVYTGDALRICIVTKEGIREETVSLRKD
UniProt P28074, sequence (whole entry, looked up): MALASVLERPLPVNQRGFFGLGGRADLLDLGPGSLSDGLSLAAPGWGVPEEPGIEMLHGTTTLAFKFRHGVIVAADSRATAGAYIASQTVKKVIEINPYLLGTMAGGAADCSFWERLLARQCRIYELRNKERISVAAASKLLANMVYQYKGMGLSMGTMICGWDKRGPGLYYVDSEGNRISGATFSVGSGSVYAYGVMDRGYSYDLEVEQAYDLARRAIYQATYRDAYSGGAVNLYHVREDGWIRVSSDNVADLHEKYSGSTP
UniProt P07333, sequence (whole entry, looked up): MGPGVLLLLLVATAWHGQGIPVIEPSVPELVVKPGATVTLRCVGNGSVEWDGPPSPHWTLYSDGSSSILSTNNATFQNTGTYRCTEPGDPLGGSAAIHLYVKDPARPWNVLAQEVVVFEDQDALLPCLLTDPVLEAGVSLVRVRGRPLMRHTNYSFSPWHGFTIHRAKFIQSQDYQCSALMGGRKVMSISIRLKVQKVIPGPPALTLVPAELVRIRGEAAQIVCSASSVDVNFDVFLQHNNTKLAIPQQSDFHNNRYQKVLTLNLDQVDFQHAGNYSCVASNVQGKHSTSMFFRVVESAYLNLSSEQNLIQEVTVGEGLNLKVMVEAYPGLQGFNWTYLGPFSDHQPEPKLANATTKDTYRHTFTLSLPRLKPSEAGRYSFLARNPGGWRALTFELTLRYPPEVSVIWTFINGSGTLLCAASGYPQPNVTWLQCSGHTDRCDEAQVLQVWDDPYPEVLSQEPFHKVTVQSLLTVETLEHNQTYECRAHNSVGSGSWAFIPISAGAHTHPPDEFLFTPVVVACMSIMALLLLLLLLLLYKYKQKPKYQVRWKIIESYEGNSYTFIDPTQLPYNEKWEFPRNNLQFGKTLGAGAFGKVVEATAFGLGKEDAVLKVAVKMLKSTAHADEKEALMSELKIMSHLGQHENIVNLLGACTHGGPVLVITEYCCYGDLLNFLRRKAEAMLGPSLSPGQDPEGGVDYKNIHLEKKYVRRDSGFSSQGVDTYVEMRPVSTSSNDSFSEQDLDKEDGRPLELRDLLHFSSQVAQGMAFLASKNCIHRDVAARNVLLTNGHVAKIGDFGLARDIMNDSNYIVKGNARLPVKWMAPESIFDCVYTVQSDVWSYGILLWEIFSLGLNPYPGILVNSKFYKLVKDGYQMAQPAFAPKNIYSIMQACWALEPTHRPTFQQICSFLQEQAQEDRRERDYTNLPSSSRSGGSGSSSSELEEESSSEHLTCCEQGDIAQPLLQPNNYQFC
UniProt Q8I5R7, sequence (whole entry, looked up): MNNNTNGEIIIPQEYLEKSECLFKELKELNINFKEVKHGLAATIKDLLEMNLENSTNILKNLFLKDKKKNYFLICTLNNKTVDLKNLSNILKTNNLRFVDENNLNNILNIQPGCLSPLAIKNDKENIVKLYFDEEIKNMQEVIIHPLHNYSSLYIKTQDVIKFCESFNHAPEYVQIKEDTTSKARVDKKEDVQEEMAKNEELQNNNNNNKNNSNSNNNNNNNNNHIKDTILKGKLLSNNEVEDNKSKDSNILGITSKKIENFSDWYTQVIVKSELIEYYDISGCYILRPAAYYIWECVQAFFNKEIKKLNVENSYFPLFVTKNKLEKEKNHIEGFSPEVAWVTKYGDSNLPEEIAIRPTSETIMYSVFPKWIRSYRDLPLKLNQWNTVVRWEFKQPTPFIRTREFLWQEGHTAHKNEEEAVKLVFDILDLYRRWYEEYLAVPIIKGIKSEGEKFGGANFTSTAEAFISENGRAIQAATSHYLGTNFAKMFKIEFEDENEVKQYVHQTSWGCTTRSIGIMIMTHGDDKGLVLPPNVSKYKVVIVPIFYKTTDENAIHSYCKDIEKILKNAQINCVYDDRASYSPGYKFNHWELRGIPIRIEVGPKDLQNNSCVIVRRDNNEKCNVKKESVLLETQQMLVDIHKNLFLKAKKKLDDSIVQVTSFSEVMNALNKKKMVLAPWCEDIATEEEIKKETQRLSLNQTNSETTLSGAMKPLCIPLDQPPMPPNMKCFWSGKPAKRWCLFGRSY
UniProt P19096, sequence (whole entry, looked up): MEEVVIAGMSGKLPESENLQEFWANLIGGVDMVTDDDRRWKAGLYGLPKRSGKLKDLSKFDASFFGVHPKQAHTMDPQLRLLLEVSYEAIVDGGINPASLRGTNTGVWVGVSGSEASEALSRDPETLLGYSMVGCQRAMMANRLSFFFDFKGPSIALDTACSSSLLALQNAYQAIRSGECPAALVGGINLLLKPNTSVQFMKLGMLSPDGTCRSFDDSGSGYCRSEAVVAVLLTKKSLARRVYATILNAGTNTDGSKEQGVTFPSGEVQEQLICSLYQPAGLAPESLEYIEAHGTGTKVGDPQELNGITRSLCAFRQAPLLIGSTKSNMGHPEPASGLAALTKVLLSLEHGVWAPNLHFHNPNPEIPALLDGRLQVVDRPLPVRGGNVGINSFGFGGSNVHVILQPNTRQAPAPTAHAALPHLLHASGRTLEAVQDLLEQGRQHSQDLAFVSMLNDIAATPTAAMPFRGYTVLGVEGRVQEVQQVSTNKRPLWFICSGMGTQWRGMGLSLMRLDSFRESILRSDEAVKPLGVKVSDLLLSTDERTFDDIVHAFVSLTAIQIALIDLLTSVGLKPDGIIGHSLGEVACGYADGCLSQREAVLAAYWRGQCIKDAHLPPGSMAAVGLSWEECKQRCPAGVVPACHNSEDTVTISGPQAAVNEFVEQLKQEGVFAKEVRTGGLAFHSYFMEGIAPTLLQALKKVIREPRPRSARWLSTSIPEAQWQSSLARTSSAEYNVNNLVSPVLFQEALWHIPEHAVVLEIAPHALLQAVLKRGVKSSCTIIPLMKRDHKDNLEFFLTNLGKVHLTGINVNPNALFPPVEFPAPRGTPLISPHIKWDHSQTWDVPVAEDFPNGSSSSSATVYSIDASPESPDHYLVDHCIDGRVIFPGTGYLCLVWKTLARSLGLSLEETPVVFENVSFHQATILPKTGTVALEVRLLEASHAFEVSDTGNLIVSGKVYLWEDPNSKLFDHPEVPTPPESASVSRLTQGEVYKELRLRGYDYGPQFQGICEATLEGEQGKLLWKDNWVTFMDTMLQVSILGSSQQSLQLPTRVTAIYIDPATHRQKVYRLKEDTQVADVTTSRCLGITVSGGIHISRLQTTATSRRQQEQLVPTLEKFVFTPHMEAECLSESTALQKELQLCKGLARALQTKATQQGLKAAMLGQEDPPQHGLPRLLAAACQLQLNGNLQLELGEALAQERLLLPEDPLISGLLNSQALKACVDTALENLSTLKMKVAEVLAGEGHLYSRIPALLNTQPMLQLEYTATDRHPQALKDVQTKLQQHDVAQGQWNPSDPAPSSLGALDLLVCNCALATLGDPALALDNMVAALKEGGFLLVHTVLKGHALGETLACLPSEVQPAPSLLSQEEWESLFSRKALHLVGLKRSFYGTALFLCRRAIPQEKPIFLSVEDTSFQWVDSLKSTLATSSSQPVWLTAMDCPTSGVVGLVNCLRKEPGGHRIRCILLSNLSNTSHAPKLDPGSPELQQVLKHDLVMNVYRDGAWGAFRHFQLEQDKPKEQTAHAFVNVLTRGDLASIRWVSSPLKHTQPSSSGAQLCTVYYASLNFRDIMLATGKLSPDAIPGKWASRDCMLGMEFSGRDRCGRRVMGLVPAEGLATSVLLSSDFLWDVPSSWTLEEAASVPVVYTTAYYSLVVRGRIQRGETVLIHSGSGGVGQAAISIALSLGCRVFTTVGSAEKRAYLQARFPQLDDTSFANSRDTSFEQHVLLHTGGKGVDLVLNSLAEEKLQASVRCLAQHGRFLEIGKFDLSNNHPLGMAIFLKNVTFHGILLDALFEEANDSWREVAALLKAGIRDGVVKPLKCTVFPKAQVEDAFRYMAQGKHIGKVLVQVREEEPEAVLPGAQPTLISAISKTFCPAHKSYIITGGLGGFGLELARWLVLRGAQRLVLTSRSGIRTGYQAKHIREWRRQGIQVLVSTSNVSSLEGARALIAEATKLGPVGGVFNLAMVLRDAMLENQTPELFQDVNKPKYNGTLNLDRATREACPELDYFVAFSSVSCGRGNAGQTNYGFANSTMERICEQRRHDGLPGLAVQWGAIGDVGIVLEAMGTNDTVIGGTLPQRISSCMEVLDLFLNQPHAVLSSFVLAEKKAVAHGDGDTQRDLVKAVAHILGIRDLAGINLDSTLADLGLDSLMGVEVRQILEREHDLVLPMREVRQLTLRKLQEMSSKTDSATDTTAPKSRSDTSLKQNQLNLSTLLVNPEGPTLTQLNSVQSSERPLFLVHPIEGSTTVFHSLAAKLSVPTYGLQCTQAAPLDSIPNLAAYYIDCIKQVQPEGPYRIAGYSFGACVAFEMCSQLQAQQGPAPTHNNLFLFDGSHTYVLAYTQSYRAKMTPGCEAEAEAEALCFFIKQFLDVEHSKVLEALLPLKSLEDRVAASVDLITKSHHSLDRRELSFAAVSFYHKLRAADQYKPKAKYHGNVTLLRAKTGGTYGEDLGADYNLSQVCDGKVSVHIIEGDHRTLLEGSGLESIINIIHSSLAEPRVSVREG

`CNC(=O)C1CCN(c2cc(C)c(F)cc2NC(=O)c2ccc(-c3c(C)ccc4[nH]ncc34)c(C)c2)CC1` has an IC50 of 38 nM (Ephrin type-A receptor 5 (EPHA5, Homo sapiens, UniProt P54756); target engagement in cells, BRET).
With `CC[C@H](C)[C@H](NC(=O)[C@H](Cc1ccccc1)NC(=O)[C@H](CC(=O)O)NC(=O)[C@H](CCCNC(=N)N)NC(=O)[C@H](C)NC(=O)[C@H](C)NC(=O)[C@H](CC(C)C)NC(=O)[C@H](CC(N)=O)NC(=O)[C@H](CC(=O)O)NC(=O)[C@H](CC(C)C)NC(=O)[C@@H](NC(=O)[C@@H](NC(=O)[C@H](CC(N)=O)NC(=O)[C@H](CCSC)NC(=O)[C@H](CCC(=O)O)NC(=O)[C@H](CC(=O)O)NC(=O)[C@H](CO)NC(=O)[C@H](Cc1ccccc1)NC(=O)[C@H](CO)NC(=O)[C@H]1CCC[C@@H]1NC(=O)[C@H](CC(=O)O)NC(=O)[C@H](C)NC(=O)[C@@H](N)Cc1c[nH]cn1)[C@@H](C)O)[C@@H](C)CC)C(=O)N[C@@H](CC(N)=O)C(=O)N[C@@H](Cc1c[nH]c2ccccc12)C(=O)N[C@@H](CC(C)C)C(=O)N[C@H](C(=O)N[C@@H](CCC(N)=O)C(=O)N[C@H](C(=O)N[C@@H](CCCCN)C(=O)N[C@H](C(=O)N[C@H](C(=O)N[C@@H](CC(=O)O)C(N)=O)[C@@H](C)O)[C@@H](C)CC)[C@@H](C)O)[C@@H](C)CC` the IC50 was 240 nM (Glucagon-like peptide 2 receptor (GLP2R, Homo sapiens, UniProt O95838)).
`COCc1nc(C(F)(F)F)[nH]c1-c1cc(C(=O)N2CC(c3ccc(C#N)cc3)C2)c(C)cc1C` has an IC50 of 12 nM (Fatty acid synthase (Fasn, Mus musculus, UniProt P19096); enzyme activity in cells, inhibitor).
`COc1ccc(NC(=O)CN2c3cccc4cccc(c34)S2(=O)=O)cc1OCc1ccncc1` has an IC50 of 12300 nM (Voltage-dependent L-type calcium channel subunit alpha-1C (CACNA1C, Homo sapiens, UniProt Q13936); calcium signal, fluorescence).
For `Cc1nc2ccc(Br)cc2c(=O)n1N`, the IC50 was 399000 ± 4950 nM (Pancreatic alpha-amylase (Homo sapiens, UniProt P04746); enzyme activity, inhibitor; mean of two determinations).
The IC50 of `Cc1ccc(CNC(=O)[C@@H](NC(=O)[C@H](CCc2ccccc2)NC(=O)[C@H](CCc2ccccc2)NCc2cnccn2)C(C)C)cc1` is reported as 2090 nM (Proteasome component C5/PSMB5; β5 activity, inhibitor; added: Suc-LLVY-AMC, PA28α-activated).
With `C=CC(=O)N1CCc2ccc(-n3c(=O)ccc4cnc5ccc(-c6cnn(C)c6)cc5c43)cc21` the IC50 was 1720 nM (Macrophage colony-stimulating factor 1 receptor (CSF1R, Homo sapiens, UniProt P07333); enzyme activity, inhibitor).
`O=C(OC(C(F)(F)F)C(F)(F)F)N1CCC(CCn2ccc3ccncc32)CC1` gave an IC50 of 4100 nM (Fatty-acid amide hydrolase 1 (Faah, Rattus norvegicus, UniProt P97612); enzyme activity, inhibitor).
`O=C(NCCCN1CCC(Cc2ccccc2)CC1)c1ccc2cc(Br)ccc2c1` gave an IC50 of greater than 10000 nM (Sodium-dependent dopamine transporter (SLC6A3, Homo sapiens, UniProt Q01959); transporter uptake, inhibitor, radiometric).
The IC50 of `Cc1nc(Nc2ncc(C(=O)Nc3c(C)cccc3Cl)s2)cc(N2CCN(CCOC(=O)[C@@H](N)CS)CC2)n1` is reported as 500 nM (Tyrosine-protein kinase CSK (CSK, Homo sapiens, UniProt P41240); enzyme activity, inhibitor).
`Cn1cc(-c2cc(N3CCCS3(=O)=O)ccc2N[C@H]2CC[C@H](C)CC2)c2cc[nH]c2c1=O` gave an IC50 of 0.52 nM (Bromodomain-containing protein 4, BD1 (BRD4, Homo sapiens, UniProt O60885); cell-free assay, TR-FRET).
For `O=C(N[C@@H](Cc1coc2ccccc12)B(O)O)[C@@H]1C[C@H]2CC[C@@H]1O2`, the IC50 was 2520 nM (Proteasome component C5/PSMB5; enzyme activity, inhibitor, fluorescence; with preincubation).
The IC50 of `CCCN(CC(=O)N(CCC)CC(=O)N(CCC)CC(=O)N(CCC)CC(=O)N(CC(=O)N(CCC)CC(=O)N(CCC)CC(=O)N(CCC)CC(=O)N(CCC)CC(=O)N(CC(=O)N(CCC)CC(=O)N(CCC)CC(=O)N(CCC)CC(=O)N(CCC)CC(=O)N(CC(N)=O)Cc1cn(CCCNC(=O)CCCOc2cccc(-c3nc4ccc(-c5nc6ccc(N7CCN(C)CC7)cc6[nH]5)cc4[nH]3)c2)nn1)Cc1cn(CCCNC(=O)CCCOc2cccc(-c3nc4ccc(-c5nc6ccc(N7CCN(C)CC7)cc6[nH]5)cc4[nH]3)c2)nn1)Cc1cn(CCCNC(=O)CCCOc2cccc(-c3nc4ccc(-c5nc6ccc(N7CCN(C)CC7)cc6[nH]5)cc4[nH]3)c2)nn1)C(=O)CNCc1cn(CCCNC(=O)CCCOc2cccc(-c3nc4ccc(-c5nc6ccc(N7CCN(C)CC7)cc6[nH]5)cc4[nH]3)c2)nn1` is reported as 210 ± 85 nM (r(CUG)109-MBNL1 complex; binding, inhibitor; added: 1.48 µM yeast tRNA).
For `Cc1cc(N2CCC(CO)(C3CC3)C2=O)cc(C(=O)NCc2cc(F)cc(-c3cnn(C)c3)c2)n1` (stereo not drawn), the IC50 was 73.5 nM (Proline--tRNA ligase (Plasmodium falciparum, UniProt Q8I5R7); enzyme activity, inhibitor, absorbance).
`CSCC[C@H](NC(=O)[C@H](CC(C)C)NC(=O)[C@H](CO)NC(=O)CNC(=O)[C@@H](NC(=O)[C@H](C)NC(=O)[C@H](Cc1c[nH]c2ccccc12)NC(=O)[C@H](CC(C)C)NC(=O)[C@@H]1CCC(=O)N1)C(C)C)C(N)=O` has an IC50 of 524 nM (Gastrin-releasing peptide receptor (GRPR, Homo sapiens, UniProt P30550); ligand displacement in cells, radioligand).

A few entries again:
`COc1ccc(NC(=O)CN2c3cccc4cccc(c34)S2(=O)=O)cc1OCc1ccncc1` has an IC50 of 12300 nM (Voltage-dependent L-type calcium channel subunit alpha-1C (CACNA1C, Homo sapiens, UniProt Q13936); calcium signal, fluorescence).
`COCc1nc(C(F)(F)F)[nH]c1-c1cc(C(=O)N2CC(c3ccc(C#N)cc3)C2)c(C)cc1C` has an IC50 of 12 nM (Fatty acid synthase (Fasn, Mus musculus, UniProt P19096); enzyme activity in cells, inhibitor).
